Measurements collected from several papers.
Protocols differ between the studies behind these lines.

| Compound | assay | test system | conditions | how to read | quantity | result |
| --- | --- | --- | --- | --- | --- | --- |
| Cc1cc(-c2nnc(N)nc2-c2ccc(F)cc2)cc(Cl)n1 | measured: Rash | IO-naive mCRPC patients, male | oral, dose not given, treatment-related, grade ≥3 |  | patients with immune-mediated AE | 0% |
| O=C(Nc1nc2cccc(-c3ccc(CN4CCS(=O)(=O)CC4)cc3)n2n1)C1CC1 |  | rheumatoid arthritis patients | oral, 100 mg twice daily, 4 weeks, regardless of relatedness |  | patients with arthropod sting allergy | 0% |
| C[C@@H](Nc1cc(F)cc(F)c1)c1cc(C(=O)N(C)C)cc2c(=O)cc(N3CCOCC3)oc12 | measured: Hypotension | advanced solid tumour patients | oral, dose not given, dose expansion |  | patients discontinuing for AE | 0% |
| CCOc1c([C@H](C)n2nc(C)c3c(N)ncnc32)cc(Cl)c(F)c1[C@@H]1CNC(=O)C1 | measured: QTcF change above 60 ms | previously treated B-cell malignancy | oral, 15 mg once daily, baseline QTcF ≤450 ms | baseline: baseline | patients | 0% |
| C=CC(=O)NC1CCN(c2ncc3ncnc(Nc4ccc(Oc5ccc6c(c5)ncn6C)c(C)c4)c3n2)CC1 |  | male patients | oral, dose not given, treatment-related adverse events |  | patients with Constipation | 0% |
| CNC(=O)c1cc(Oc2ccc(NC(=O)Nc3cc(C(C)(C)C)nn3-c3ccc4ncccc4c3)c(F)c2)ccn1 |  | patients | oral, dose not given, cycles 1 and 2, Medium Cmax subgroup |  | patients with grade 1 musculoskeletal disorders | 7% |
| COc1cc(Nc2ncc3c(n2)-c2ccc(Cl)cc2C(c2c(F)cccc2OC)=NC3)ccc1C(=O)O | measured: Pruritus, all grades | cancer patients, phase 1/2 | oral, dose not given, added: pembrolizumab |  | patients with adverse event | 21% |
| CCO[C@H]1CCN(Cc2c(OC)cc(C)c3[nH]ccc23)[C@H](c2ccc(C(=O)O)cc2)C1 | measured: Headache | PNH patients, active haemolysis | oral, 200 mg twice daily, extension phase |  | patients with adverse event | 0% |
| Cc1cc(NC2CCN(C(=O)OC3CCN(C(=O)/C=C/CN(C)C)C3)CC2)n2ncc(C(C)C)c2n1 (centres unmarked) |  | patients with advanced solid tumours | dose not given, QD arm, grade 3 or higher |  | patients with Hypomagnesemia | 0% |
| CNC(=O)c1ccc(-c2cnc3ncc(Cc4ccc5ncccc5c4)n3n2)cc1F | measured: Anemia, all grades | cancer patients | oral, dose not given, dose escalation, any causality |  | patients with adverse event | 18% |
| COc1ccc([C@@H](O)c2cc(-c3ncnc4cc(N5CCOCC5)ccc34)c(F)cc2Cl)nn1 | measured: Proctitis | locally advanced rectal cancer patients | dose not given, all dose groups, added: capecitabine plus radiotherapy |  | patients with TEAE | 47% |

A few entries again:
| Compound | assay | test system | conditions | how to read | quantity | result |
| --- | --- | --- | --- | --- | --- | --- |
| Cc1cc(-c2nnc(N)nc2-c2ccc(F)cc2)cc(Cl)n1 | measured: Rash | IO-naive mCRPC patients, male | oral, dose not given, treatment-related, grade ≥3 |  | patients with immune-mediated AE | 0% |
